Results of several laboratories.
Each numbered part is a random draw from the data of one study; scales do not carry over between parts.
UniProt P41143, sequence (whole entry, looked up): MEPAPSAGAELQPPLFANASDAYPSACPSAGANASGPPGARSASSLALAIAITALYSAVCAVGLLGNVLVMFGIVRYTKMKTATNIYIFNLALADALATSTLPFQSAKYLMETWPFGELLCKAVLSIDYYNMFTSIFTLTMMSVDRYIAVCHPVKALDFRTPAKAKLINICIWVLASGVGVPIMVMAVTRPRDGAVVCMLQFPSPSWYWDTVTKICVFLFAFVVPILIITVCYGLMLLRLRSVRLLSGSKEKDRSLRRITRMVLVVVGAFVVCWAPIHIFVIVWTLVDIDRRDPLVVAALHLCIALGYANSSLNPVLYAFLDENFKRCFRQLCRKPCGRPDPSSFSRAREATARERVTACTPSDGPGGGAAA
UniProt P62344, sequence (whole entry, looked up): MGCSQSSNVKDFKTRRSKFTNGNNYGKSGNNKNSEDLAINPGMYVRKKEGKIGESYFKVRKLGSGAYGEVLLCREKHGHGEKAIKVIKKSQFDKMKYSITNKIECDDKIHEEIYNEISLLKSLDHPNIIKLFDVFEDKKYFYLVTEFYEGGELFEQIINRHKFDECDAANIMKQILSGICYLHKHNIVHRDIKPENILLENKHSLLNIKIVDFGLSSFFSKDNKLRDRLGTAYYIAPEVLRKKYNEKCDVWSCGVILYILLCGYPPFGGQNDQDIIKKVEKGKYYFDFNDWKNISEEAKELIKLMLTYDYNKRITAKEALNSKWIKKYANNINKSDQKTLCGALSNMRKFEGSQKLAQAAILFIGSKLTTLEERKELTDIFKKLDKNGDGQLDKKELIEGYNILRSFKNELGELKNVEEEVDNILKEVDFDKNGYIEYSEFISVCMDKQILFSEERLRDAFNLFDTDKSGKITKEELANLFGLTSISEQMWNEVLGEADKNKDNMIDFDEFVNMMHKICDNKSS
UniProt O75417, sequence (whole entry, unmodified, looked up): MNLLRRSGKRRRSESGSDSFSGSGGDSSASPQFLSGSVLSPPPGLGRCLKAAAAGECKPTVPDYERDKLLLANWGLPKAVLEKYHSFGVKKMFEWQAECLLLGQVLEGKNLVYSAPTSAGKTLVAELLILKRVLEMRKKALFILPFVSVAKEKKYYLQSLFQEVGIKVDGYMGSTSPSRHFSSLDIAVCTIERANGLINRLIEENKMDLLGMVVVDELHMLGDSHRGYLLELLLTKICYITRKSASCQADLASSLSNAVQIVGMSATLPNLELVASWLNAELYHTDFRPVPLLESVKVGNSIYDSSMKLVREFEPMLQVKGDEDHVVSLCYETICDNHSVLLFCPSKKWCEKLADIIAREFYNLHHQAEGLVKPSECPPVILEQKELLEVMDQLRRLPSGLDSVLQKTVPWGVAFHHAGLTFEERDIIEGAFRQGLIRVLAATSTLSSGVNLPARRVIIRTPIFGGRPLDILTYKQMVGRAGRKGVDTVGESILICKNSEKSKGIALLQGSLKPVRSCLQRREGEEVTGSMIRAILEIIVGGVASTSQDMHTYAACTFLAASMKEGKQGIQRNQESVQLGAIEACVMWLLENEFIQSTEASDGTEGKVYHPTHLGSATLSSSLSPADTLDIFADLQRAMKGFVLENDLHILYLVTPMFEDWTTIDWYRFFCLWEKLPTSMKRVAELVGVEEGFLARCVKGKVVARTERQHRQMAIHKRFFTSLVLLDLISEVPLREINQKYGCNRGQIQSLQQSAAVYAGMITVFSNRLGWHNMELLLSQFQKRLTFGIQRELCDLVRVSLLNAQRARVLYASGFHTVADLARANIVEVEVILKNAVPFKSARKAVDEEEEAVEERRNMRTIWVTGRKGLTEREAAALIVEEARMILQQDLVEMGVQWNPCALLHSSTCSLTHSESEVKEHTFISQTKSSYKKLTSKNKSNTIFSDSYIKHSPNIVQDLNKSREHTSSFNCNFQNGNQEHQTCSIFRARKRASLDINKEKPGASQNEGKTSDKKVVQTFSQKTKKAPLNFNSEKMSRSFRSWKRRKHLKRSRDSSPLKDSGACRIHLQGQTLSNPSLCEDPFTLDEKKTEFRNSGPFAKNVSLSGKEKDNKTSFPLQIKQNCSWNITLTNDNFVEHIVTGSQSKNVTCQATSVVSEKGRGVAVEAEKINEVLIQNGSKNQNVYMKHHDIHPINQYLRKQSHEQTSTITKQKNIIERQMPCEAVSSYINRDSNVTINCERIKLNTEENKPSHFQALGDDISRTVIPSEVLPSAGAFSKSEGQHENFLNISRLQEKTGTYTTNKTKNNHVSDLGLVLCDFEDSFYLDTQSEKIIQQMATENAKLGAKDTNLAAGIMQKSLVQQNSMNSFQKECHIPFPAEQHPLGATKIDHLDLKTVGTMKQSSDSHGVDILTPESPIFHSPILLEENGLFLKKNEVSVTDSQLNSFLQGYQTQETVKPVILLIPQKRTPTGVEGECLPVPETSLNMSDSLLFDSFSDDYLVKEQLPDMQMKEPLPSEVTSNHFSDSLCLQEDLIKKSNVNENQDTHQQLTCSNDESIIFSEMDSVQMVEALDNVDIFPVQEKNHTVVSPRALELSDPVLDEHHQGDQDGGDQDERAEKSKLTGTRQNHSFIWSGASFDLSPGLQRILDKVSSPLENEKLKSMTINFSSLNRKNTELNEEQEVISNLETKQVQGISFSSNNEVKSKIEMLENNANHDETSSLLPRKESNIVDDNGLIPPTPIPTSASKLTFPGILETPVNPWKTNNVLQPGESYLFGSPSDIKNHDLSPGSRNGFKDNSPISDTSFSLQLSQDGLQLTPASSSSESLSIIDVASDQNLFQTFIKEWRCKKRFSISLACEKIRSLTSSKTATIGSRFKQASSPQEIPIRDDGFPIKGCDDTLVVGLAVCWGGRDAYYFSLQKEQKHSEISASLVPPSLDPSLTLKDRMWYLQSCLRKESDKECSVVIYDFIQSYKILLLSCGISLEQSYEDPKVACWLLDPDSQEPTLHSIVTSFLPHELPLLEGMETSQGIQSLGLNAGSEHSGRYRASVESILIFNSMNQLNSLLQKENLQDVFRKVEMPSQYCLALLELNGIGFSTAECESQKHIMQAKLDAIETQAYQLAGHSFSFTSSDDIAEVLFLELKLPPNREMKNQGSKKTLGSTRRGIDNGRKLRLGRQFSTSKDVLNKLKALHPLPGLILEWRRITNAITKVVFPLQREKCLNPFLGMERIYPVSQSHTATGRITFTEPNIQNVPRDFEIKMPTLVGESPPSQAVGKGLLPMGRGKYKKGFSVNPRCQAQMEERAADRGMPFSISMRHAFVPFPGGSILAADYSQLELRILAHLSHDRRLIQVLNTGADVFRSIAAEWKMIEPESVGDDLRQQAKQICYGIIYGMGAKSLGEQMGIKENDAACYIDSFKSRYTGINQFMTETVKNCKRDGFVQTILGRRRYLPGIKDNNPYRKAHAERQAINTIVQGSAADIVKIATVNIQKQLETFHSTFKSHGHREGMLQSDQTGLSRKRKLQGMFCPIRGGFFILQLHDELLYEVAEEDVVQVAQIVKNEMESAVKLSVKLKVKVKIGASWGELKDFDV
UniProt P9WI81, sequence (whole entry, looked up): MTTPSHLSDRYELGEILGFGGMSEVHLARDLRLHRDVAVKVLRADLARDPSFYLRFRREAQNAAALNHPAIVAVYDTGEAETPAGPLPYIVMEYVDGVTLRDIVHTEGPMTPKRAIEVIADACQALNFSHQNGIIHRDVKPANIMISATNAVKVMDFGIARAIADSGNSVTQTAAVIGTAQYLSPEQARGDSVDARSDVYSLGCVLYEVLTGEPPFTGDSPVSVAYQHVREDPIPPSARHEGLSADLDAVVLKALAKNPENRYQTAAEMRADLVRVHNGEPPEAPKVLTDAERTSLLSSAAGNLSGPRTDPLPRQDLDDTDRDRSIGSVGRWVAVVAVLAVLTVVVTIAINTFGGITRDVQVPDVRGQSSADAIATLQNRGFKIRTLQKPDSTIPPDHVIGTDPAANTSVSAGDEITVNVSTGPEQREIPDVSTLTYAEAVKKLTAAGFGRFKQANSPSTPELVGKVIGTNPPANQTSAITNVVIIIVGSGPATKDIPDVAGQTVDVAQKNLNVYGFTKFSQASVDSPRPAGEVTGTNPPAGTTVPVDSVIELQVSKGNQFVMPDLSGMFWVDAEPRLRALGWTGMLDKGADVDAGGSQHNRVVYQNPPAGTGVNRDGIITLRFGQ

Study 1
Compound: CCN(CC)C(=O)c1ccc(C2=CC3(CCNCC3)Oc3cccc(O)c32)cc1
Cells: human cells
target	EC50 [nM]
Delta-type opioid receptor, with Gi2 (OPRD1, Homo sapiens, UniProt P41143)	22.2
Delta-type opioid receptor, with GoB (OPRD1, Homo sapiens, UniProt P41143)	17.7
Delta-type opioid receptor, with GoA (OPRD1, Homo sapiens, UniProt P41143)	16.5
Delta-type opioid receptor, with β-arrestin1 (OPRD1, Homo sapiens, UniProt P41143)	681

Mixed results
CRK2: Cyclin-dependent kinase 2 homolog (CRK2, Plasmodium falciparum, UniProt P61075)
UniProt P61075, sequence (whole entry, looked up): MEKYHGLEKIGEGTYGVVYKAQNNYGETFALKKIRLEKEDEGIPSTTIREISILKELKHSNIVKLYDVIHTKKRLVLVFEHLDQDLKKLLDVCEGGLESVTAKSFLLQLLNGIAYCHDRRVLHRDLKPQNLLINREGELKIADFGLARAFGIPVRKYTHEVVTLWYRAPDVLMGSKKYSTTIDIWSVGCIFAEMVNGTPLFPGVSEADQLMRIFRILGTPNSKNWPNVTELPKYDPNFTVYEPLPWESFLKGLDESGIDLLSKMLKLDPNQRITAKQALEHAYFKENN
SMILES	target	test	setting	scale	quantity	result
C[C@@H]1CN(c2cc(-c3n[nH]c4ccc(OC5(C)CC5)cc34)ncn2)C[C@H](C)O1	CRK2	cell-free assay, competition with immobilised ligand	0.1 µM		remaining binding	80%
NCC(CC(=O)O)c1ccc(Cl)cc1 (stereo not drawn)	DNA polymerase theta, ATPase domain (POLQ, Homo sapiens, UniProt O75417)	enzyme activity, inhibitor	77 µM	baseline: untreated	remaining activity	104%
Cn1cc(Cl)c2c(Oc3c(F)cc(Nc4cc(Cl)nc(N)n4)cc3F)ccnc21	CRK2	cell-free assay, competition with immobilised ligand	0.1 µM		remaining binding	68%
Cc1ccc(NC(=O)c2ccnc(C(F)(F)F)c2)cc1-c1cc(OCCO)nc(N2CCOCC2)c1	Serine/threonine-protein kinase PknB (pknB, Mycobacterium tuberculosis, UniProt P9WI81)	binding	1 µM		remaining binding	70%
O=C(O)c1cc(-c2ccc(C3CCNCC3)cc2)c2ccc(-c3ccc(C(F)(F)F)cc3)cc2c1	Calcium-dependent protein kinase 1 (CDPK1, Plasmodium falciparum, UniProt P62344)	cell-free assay, competition with immobilised ligand	1 µM		remaining binding	100%

A few entries again (study 1):
target	EC50 [nM]
Delta-type opioid receptor, with Gi2 (OPRD1, Homo sapiens, UniProt P41143)	22.2
